# Experimental data of several laboratories.
# Compare with care: the assays were run in different laboratories. Several values in a cell are separate wells, animals, samples, runs or records. ± gives the spread as reported.
Structure (SMILES),test,test system,conditions,how to read,endpoint,value
CCCC[C@H](NC(=O)CNC(=O)CNC(=O)c1ccc(NN)nc1)C(=O)N[C@H]1CC(=O)NCCCC[C@@H](C(N)=O)NC(=O)[C@H](Cc2c[nH]c3ccccc23)NC(=O)[C@H](CCCNC(=N)N)NC(=O)[C@@H](Cc2ccccc2)NC(=O)[C@H](Cc2c[nH]cn2)NC1=O [technetium-99m labelled],,"C57 mouse, B16/F1 melanoma, stomach","2 h, added: NDP-MSH 6.07 nmol blockade",,uptake,0.49 ± 0.22 %ID/g
CCCC[C@H](NC(=O)CNC(=O)CNC(=O)CNC(=O)c1ccc(NN)nc1)C(=O)N[C@H]1CC(=O)NCCCC[C@@H](C(N)=O)NC(=O)[C@H](Cc2c[nH]c3ccccc23)NC(=O)[C@H](CCCNC(=N)N)NC(=O)[C@@H](Cc2ccccc2)NC(=O)[C@H](Cc2c[nH]cn2)NC1=O [technetium-99m labelled],,"C57 mouse, B16/F1 melanoma",2 h,relative to: tumour over kidney,uptake ratio,1.92
N=C(N)NCCC[C@@H]1NC(=O)[C@H](CCCCNC(=O)CC[C@H](NC(=O)CCOCCOCCOCCOCCNC(=O)CC[C@H](NC(=O)CN2CCN(CC(=O)O)CCN(CC(=O)O)CCN(CC(=O)O)CC2)C(=O)NCCOCCOCCOCCOCCC(=O)N[C@@H](CCC(=O)NCCCC[C@@H]2NC(=O)[C@@H](Cc3ccccc3)NC(=O)[C@H](CC(=O)O)NC(=O)CNC(=O)[C@H](CCCNC(=N)N)NC2=O)C(=O)NCCCC[C@@H]2NC(=O)[C@@H](Cc3ccccc3)NC(=O)[C@H](CC(=O)O)NC(=O)CNC(=O)[C@H](CCCNC(=N)N)NC2=O)C(=O)NCCCC[C@@H]2NC(=O)[C@@H](Cc3ccccc3)NC(=O)[C@H](CC(=O)O)NC(=O)CNC(=O)[C@H](CCCNC(=N)N)NC2=O)NC(=O)[C@@H](Cc2ccccc2)NC(=O)[C@H](CC(=O)O)NC(=O)CNC1=O [indium-111 labelled],,"athymic nude mice, female, U-87 MG glioma xenograft, U-87 MG tumour","intravenous, 3 µCi, 4 h",,tissue uptake,8.49 ± 5.28 %ID/g
CSCC[C@H](NC(=O)[C@H](CC(C)C)NC(=O)[C@H](Cc1c[nH]cn1)NC(=O)CNC(=O)[C@@H](NC(=O)[C@H](C)NC(=O)[C@H](Cc1c[nH]c2ccccc12)NC(=O)[C@H](CCC(N)=O)NC(=O)CCCCCNC(=O)CNC(=O)CNC(=O)CNC(=O)CSC(C)=O)C(C)C)C(N)=O [technetium-99m labelled],,"Swiss mouse, heart","intravenous, 18.5 MBq, 30 min",,tissue uptake,0.14 ± 0.05 %ID/g
CC(C)C[C@H](NC(=O)[C@@H]1CCCN1C(=O)[C@H](CCCCN)NC(=O)[C@@H](N)CO)C(=O)N1CCC[C@H]1C(=O)N[C@@H](CCC(=O)O)C(=O)N[C@H](C(=O)N[C@H](C(=O)N[C@@H](CC(=O)O)C(=O)N[C@@H](CCC(=O)O)C(=O)N[C@@H](Cc1ccc(O)cc1)C(=O)N[C@@H](Cc1cn(CCOCCOCCOCCNC(=O)CCc2ccc(O)c(CN(CCN(CC(=O)O)Cc3cc(CCC(=O)NCCCC[C@H](NC(=O)N[C@@H](CCC(=O)O)C(=O)O)C(=O)O)ccc3O)CC(=O)O)c2)nn1)C(=O)O)[C@@H](C)O)C(C)C [gallium-68 labelled],,"NMRI nu/nu mice, LNCaP tumour, skin","10 MBq, high molar activity",,standardized uptake value,0.13 g/g
CCCC[C@H](NC(=O)CCCCCCCNC(=O)c1ccc(NN)nc1)C(=O)N[C@H]1CC(=O)NCCCC[C@@H](C(N)=O)NC(=O)[C@H](Cc2c[nH]c3ccccc23)NC(=O)[C@H](CCCNC(=N)N)NC(=O)[C@@H](Cc2ccccc2)NC(=O)[C@H](Cc2c[nH]cn2)NC1=O [technetium-99m labelled],,"C57 mouse, B16/F1 melanoma, skin","intravenous, 4 h",,uptake,0.37 ± 0.11 %ID/g
N=C(N)NCCC[C@@H]1NC(=O)[C@H](CCCCNC(=O)CCOCCOCCOCCOCCNC(=O)CC[C@H](NC(=O)CCOCCOCCOCCOCCNC(=O)c2ccc(NN)nc2)C(=O)NCCOCCOCCOCCOCCC(=O)NCCCC[C@@H]2NC(=O)[C@@H](Cc3ccccc3)NC(=O)[C@H](CC(=O)O)NC(=O)CNC(=O)[C@H](CCCNC(=N)N)NC2=O)NC(=O)[C@@H](Cc2ccccc2)NC(=O)[C@H](CC(=O)O)NC(=O)CNC1=O [technetium-99m labelled],,"female athymic nude mice, U-87 MG glioma xenograft, tumour and lungs","intravenous, 2.5 µCi, 60 min",relative to: tumour over lungs,tissue-to-tissue ratio,4.36 ± 0.54
C/C=C(/C)C(=O)O[C@H]1C(C)=C2[C@H]([C@@H]1OC(=O)CCCCCCC)[C@@](C)(OC(C)=O)C[C@H](OC(=O)CCCCCCCCCCCNC(=O)[C@H](CO)NC(=O)[C@@H]1CCCN1C(=O)CNC(=O)[C@@H](NC(=O)[C@H](CCC(=O)O)NC(=O)CNC(=O)[C@H](CCCNC(=N)N)NC(=O)[C@@H](N)CCC(=O)O)[C@@H](C)O)[C@@]1(O)[C@H]2OC(=O)[C@@]1(C)O,,"mouse, plasma","intravenous, dose not given, full-length prodrug",,Cmax,35 to 40 µM
N=C(N)NCCC[C@@H]1NC(=O)[C@H](CCCCNC(=O)CC[C@H](NC(=O)CCOCCOCCOCCOCCNC(=O)CN2CCN(CC(=O)O)CCN(CC(=O)O)CCN(CC(=O)O)CC2)C(=O)NCCCC[C@@H]2NC(=O)[C@@H](Cc3ccccc3)NC(=O)[C@H](CC(=O)O)NC(=O)CNC(=O)[C@H](CCCNC(=N)N)NC2=O)NC(=O)[C@@H](Cc2ccccc2)NC(=O)[C@H](CC(=O)O)NC(=O)CNC1=O [indium-111 labelled],,"athymic nude mice, female, U-87 MG glioma xenograft, tumour and liver","intravenous, 24 h",relative to: tumour over liver,tumour to tissue ratio,2.04 ± 0.4
N=C(N)NCCC[C@@H]1NC(=O)CNC(=O)[C@H](CC(N)=O)NC(=O)[C@@H](NC(=O)CNC(=O)CNC(=O)CNC(=O)CN2CCN(CC(=O)O)CCN(CC(=O)O)CCN(CC(=O)O)CC2)CSSC[C@@H](C(=O)O)NC1=O,T1-weighted MRI,"BALB/c nude mouse, HT-1080 xenograft",i.p.,,time to peak tumour/non-tumour ratio,2 h
N=C(N)NCCC[C@@H]1NC(=O)[C@H](CCCCNC(=O)CCOCCOCCOCCOCCNC(=O)CC[C@H](NC(=O)CCOCCOCCOCCOCCNC(=O)CC[C@H](NC(=O)CN2CCN(CC(=O)O)CCN(CC(=O)O)CCN(CC(=O)O)CC2)C(=O)NCCOCCOCCOCCOCCC(=O)N[C@@H](CCC(=O)NCCOCCOCCOCCOCCC(=O)NCCCC[C@@H]2NC(=O)[C@@H](Cc3ccccc3)NC(=O)[C@H](CC(=O)O)NC(=O)CNC(=O)[C@H](CCCNC(=N)N)NC2=O)C(=O)NCCOCCOCCOCCOCCC(=O)NCCCC[C@@H]2NC(=O)[C@@H](Cc3ccccc3)NC(=O)[C@H](CC(=O)O)NC(=O)CNC(=O)[C@H](CCCNC(=N)N)NC2=O)C(=O)NCCOCCOCCOCCOCCC(=O)NCCCC[C@@H]2NC(=O)[C@@H](Cc3ccccc3)NC(=O)[C@H](CC(=O)O)NC(=O)CNC(=O)[C@H](CCCNC(=N)N)NC2=O)NC(=O)[C@@H](Cc2ccccc2)NC(=O)[C@H](CC(=O)O)NC(=O)CNC1=O [indium-111 labelled],,"female athymic nude mice, spleen","intravenous, 3 µCi, 0.5 h, U-87 MG glioma xenograft",,tissue uptake,2.69 ± 0.63 %ID/g
C=Cc1c(C)c2cc3nc(c4c5[nH]c(cc6nc(cc1[nH]2)C(C)=C6CC)c(C)c5C(=O)C4)[C@@H](CCC(=O)NCC(=O)N1CCC[C@H]1C(=O)N[C@@H](CC(C)C)C(=O)NCC(=O)N[C@@H](Cc1ccccc1)C(=O)N[C@@H](CCCNC(=N)N)C(=O)N[C@H](C(=O)NCC(=O)N[C@@H](CCCCNC(=O)CCCN(C)c1ccc(/N=N/c2ccc4nc5ccc(N(CC)CC)cc5[n+](-c5ccccc5)c4c2)cc1)C(N)=O)C(C)C)[C@@H]3C,,"C57BL/6J mouse, DMM osteoarthritis model, knee articular cartilage","intra-articular, 6 h",,penetration depth,50 µm
N=C(N)NCCC[C@@H]1NC(=O)[C@H](CCCCNC(=O)CNC(=O)CNC(=O)CNC(=O)CC[C@H](NC(=O)CCOCCOCCOCCOCCNC(=O)CC[C@H](NC(=O)CN2CCN(CC(=O)O)CCN(CC(=O)O)CCN(CC(=O)O)CC2)C(=O)NCCOCCOCCOCCOCCC(=O)N[C@@H](CCC(=O)NCC(=O)NCC(=O)NCC(=O)NCCCC[C@@H]2NC(=O)[C@@H](Cc3ccccc3)NC(=O)[C@H](CC(=O)O)NC(=O)CNC(=O)[C@H](CCCNC(=N)N)NC2=O)C(=O)NCC(=O)NCC(=O)NCC(=O)NCCCC[C@@H]2NC(=O)[C@@H](Cc3ccccc3)NC(=O)[C@H](CC(=O)O)NC(=O)CNC(=O)[C@H](CCCNC(=N)N)NC2=O)C(=O)NCC(=O)NCC(=O)NCC(=O)NCCCC[C@@H]2NC(=O)[C@@H](Cc3ccccc3)NC(=O)[C@H](CC(=O)O)NC(=O)CNC(=O)[C@H](CCCNC(=N)N)NC2=O)NC(=O)[C@@H](Cc2ccccc2)NC(=O)[C@H](CC(=O)O)NC(=O)CNC1=O [indium-111 labelled],,"female athymic nude mice, liver","intravenous, 3 µCi, 72 h, U-87 MG glioma xenograft",,tissue uptake,0.25 ± 0.06 %ID/g
CC(C)C[C@@H]1NC(=O)[C@H](C(C)C)NC(=O)[C@H](CO)NC(=O)CNC(=O)CNC(=O)[C@H](CCCNC(=N)N)NC(=O)[C@@H]2CCCN2C(=O)[C@@H](NC(=O)CC[C@H](NC(=O)c2ccc(N(C)Cc3cnc4nc(N)nc(N)c4n3)cc2)C(=O)O)C(C)(C)SSC[C@@H](C(=O)O)NC(=O)CNC(=O)[C@H]([C@@H](C)O)NC(=O)[C@H](C(C)C)NC1=O,HPLC,Carbonate buffer,"pH 10.0, 70 °C",,degradation rate constant,0.023 h⁻¹
N=C(N)NCCC[C@@H]1NC(=O)[C@H](CCCCNC(=O)CCOCCOCCOCCOCCNC(=O)CN2CCN(CC(=O)O)CCN(CC(=O)O)CCN(CC(=O)O)CC2)NC(=O)[C@@H](Cc2ccccc2)NC(=O)[C@H](CC(=O)O)NC(=O)CNC1=O [indium-111 labelled],,"athymic nude mice, female, U-87 MG glioma xenograft, U-87 MG tumour","intravenous, 3 µCi, 24 h",,tissue uptake,1.43 ± 0.09 %ID/g
CCCC[C@H](NC(=O)[C@H](Cc1cccs1)NC(=O)[C@H](Cc1c[nH]cn1)NC(=O)CCNC(=O)[C@@H](NC(=O)[C@H](C)NC(=O)[C@H](Cc1c[nH]c2ccccc12)NC(=O)[C@H](CCC(N)=O)NC(=O)[C@H](Cc1cccs1)NC(=O)CN1CCC(NC(=O)CN(CCN(CCN(CC(=O)O)CC(=O)O)CC(=O)O)CC(=O)O)CC1)C(C)C)C(N)=O [indium-111 labelled],radio-HPLC,"Swiss nu/nu mice, blood","intravenous, 1 nmol, 15 min",,intact peptide,2.6% and 3.1%

# Excerpt of the above:
Structure (SMILES),test,test system,conditions,how to read,endpoint,value
C/C=C(/C)C(=O)O[C@H]1C(C)=C2[C@H]([C@@H]1OC(=O)CCCCCCC)[C@@](C)(OC(C)=O)C[C@H](OC(=O)CCCCCCCCCCCNC(=O)[C@H](CO)NC(=O)[C@@H]1CCCN1C(=O)CNC(=O)[C@@H](NC(=O)[C@H](CCC(=O)O)NC(=O)CNC(=O)[C@H](CCCNC(=N)N)NC(=O)[C@@H](N)CCC(=O)O)[C@@H](C)O)[C@@]1(O)[C@H]2OC(=O)[C@@]1(C)O,,"mouse, plasma","intravenous, dose not given, full-length prodrug",,Cmax,35 to 40 µM
